Experimental data collected from several papers.
Parts stem from different laboratories: compare values within a part only.

Sample 1 — technique: RNA Bind-n-Seq; molecule type: RNA; matrix: in vitro; tested at: 365 nM; baseline: no-protein control; reading: higher = stronger binding; quantity: RBNS enrichment (R)
Target: RNA binding protein fox-1 homolog 2, RRM domain, GST-SBP tag (RBFOX2, Homo sapiens, UniProt O43251-10, residues 100-194)
Notes: natural RNA segment, single round, ends assumed
Constant ends, left off below: GGGAGUUCUACAGUCCGACGAUC … UGGAAUUCUCGGGUGCCAA
Construct (chain): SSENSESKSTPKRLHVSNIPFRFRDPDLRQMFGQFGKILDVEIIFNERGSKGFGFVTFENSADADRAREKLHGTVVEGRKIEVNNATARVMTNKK
GAAAGGAAUGAAUAAACUUUGUAGUAAUCAACUGUGAACUUCAAACCAGGUUGAUUUUAGUAACCCAAUUGCUUUGAUUUGACAUUAAUGUAGUCUUACAGGGCUGUGCU: 0.537
AUUGCUGUUAGAAUAGUGUUGUAUCAGGUAUGUGACCAUUUCAGAAGGCUGAACUUACAUAGAGGUUUUACUCAGCAAUACUUAGAUGUCUAACAGUUUAAUUGCUCCAG: 0.563
AGGAAUGGGCUGUGAGACUGGAUAGUUAUGGUGCAUCAAGGCUGAUCCUUCUGAUUGGGUGGGGCGAGCAUCCCAGUGUCCAAAAAUUCCAGCCUAAAUGACAGGUCCUC: 1.62
AGAGCAGUGGUUAAGACAGACUUUGGGAUCAAAUCACCCUAGGUGCGGGCAGGUUUCUAGGCUGCUCUAAGCUUCUACCUUGAAGGCAGUUGGGUCUGAUAAUAGUACCU: 0.321
UGCUCCAUGCCACUAGCAACCUCCUGCCAUGUGUGGCAGUCACAAAGGUCAUCAGAAUGGAGUGAGUGCUCCCUGGGAAGGCAGGCAGGACCUUCAACCAUUGGACCAAG: 0.432
UUCCAGUCUCUUCCCCCUUUCUAUCCCAAUCACCAAUAGAAAUGCUAACAUCCCUGCCUGGUAGCCAGACUAGCCCACUAAAGCUCCCCUGUAAAUGGGGGCUCCAUUAG: 0.802
CAAAAAACCCGCGACUUUAAAAUGAAAUAACGUGAGCCCAGAUGGGGAAGCUGAAGGGCUGGGCACUAGGAGGAGAUGCUGCUGCCAACCGAUCCUGGGGCUUUUCCCGC: 0.519
UGGACCUUCAGCCUCUUCUCUUCCAGUUUACCUCCAGGUGGGGCUGAUAUGCCACAUAGGAUGCUCCAAAGCCCCAAGACAUUGGAGUUUGGCUCAAGAGCCUUUAUUUG: 0.41

Sample 2 — technique: protein-binding microarray; molecule type: double-stranded DNA, one strand shown; matrix: in vitro; tested at: 2540 nM top; notes: 60-bp whole probe; together with: salmon DNA 0.4 mg/ml; baseline: random background probes; reading: higher = stronger binding; quantity: fitted relative affinity; constant ends, left off below: GCCTAGCAC … GTCTTGATTCGCTTGACGCTGCTG
Target: Interferon regulatory factor 3, full length, phosphomimetic (IRF3, Homo sapiens, UniProt Q14653, residues 1-427, S386D/S396D/S398D/S402D/T404D/S405D)
Sequence of UniProt Q14653 (whole entry, unmodified, looked up): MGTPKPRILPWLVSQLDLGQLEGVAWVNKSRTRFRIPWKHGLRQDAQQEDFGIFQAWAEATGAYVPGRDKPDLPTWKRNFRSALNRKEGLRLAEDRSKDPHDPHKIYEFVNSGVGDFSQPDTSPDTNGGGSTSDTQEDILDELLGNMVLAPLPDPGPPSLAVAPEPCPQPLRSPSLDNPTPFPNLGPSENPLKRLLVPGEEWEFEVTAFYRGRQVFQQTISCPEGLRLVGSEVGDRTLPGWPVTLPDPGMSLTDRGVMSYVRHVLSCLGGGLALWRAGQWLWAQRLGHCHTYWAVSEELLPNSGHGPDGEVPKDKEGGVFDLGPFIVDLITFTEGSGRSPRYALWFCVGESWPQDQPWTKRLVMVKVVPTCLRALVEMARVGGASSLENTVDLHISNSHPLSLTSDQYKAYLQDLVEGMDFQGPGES
TTAGGACTGCTTTGCCTTTAGTGCTAG: -0.44 z-score
GTCAGTTTTGAGCTCTGTCTGTGCTAG: 0.711 z-score
TTAGGTTTCCTTTCCCTTGAGTGCTAG: 10.5 z-score
CTTTCTTTAACATATTCTCTTGTGCTA: 5.56 z-score
TCAGCCAGCTCTTTCGTACTGTGCTAG: -0.401 z-score
TTAGAACTGGGCTTTCGATTAGTGCTA: -0.467 z-score
TCAGAAATCAACTTTTTTACTGTGCTA: 0.0923 z-score
TCAGGTTTTACTTTCTAACTGTGCTAG: 3.65 z-score
TTAGGACTGGGACTGGGTGAGTGCTAG: -0.805 z-score
GACGGTATGCTTATCCTGACGTGCTAG: 0.105 z-score
GACAGTATCGACACTGGGGACGTGCTA: 0.472 z-score
TTAGGTCTCGGTTTAGGTTAGTGCTAG: 1.88 z-score
TTAGGACTGGGGTATCGGTTCGTGCTA: 0.842 z-score
GACGGTATCGACACTGGGGATGTGCTA: 0.522 z-score
GACGGTTTTGGTTCCGGGACGTGCTAG: 4.45 z-score
TATCAGCAAACTTTTCTTGAGTGCTAG: 0.195 z-score
TTAGAACTGGGGCATCGATTAGTGCTA: -0.989 z-score
GACGGTTTCGGGACTGGGGAAGTGCTA: 4.86 z-score

Sample 3 — technique: aptamer microarray, sandwich; molecule type: DNA with 2'F-ANA; matrix: in vitro; tested at: 200 nM; together with: Cy3 exosite-II aptamer, 400 nM; reading: higher = stronger binding; quantity: mean fluorescence intensity; strand: GGTTGGTGTGGTTGG
Target: Prothrombin, mature alpha-thrombin (F2, Homo sapiens, UniProt P00734)
Notes: whole 15-mer aptamer, many near background
2'F-ANA at 1 2 3 5 10 11 14 15: 47.8 a.u.
2'F-ANA at 1 6 7 8 9 12 13: 283 a.u.
2'F-ANA at 2 4 5 8 10 11 13: 48.6 a.u.
2'F-ANA at 1 3 4 5 9: 60.5 a.u.
2'F-ANA at 1 5 8 12: 131 a.u.
2'F-ANA at 3 4 6 7 10 13 14 15: 177 a.u.
2'F-ANA at 2 4 5 6 7 10 11 13 15: 49.3 a.u.
2'F-ANA at 1 5 7 8 11 13 15: 51.6 a.u.
2'F-ANA at 1 3 5 6 8 10 14 15: 51.2 a.u.
2'F-ANA at 1 7 8 11 13 14 15: 61.3 a.u.
2'F-ANA at 1 2 3 6 10 11 12 15: 105 a.u.
2'F-ANA at 2 4 6 10 11 14 15: 61.5 a.u.
2'F-ANA at 1 2 3 4 6 9 10 11 12 13 15: 70 a.u.
2'F-ANA at 4 6 7 8 11 13: 222 a.u.
2'F-ANA at 4 8 9 10 12 13 15: 88.2 a.u.
2'F-ANA at 1 2 3 4 5 6 8 12 13 14 15: 274 a.u.
2'F-ANA at 1 3 5 7 8 9: 79.1 a.u.
2'F-ANA at 2 3 4 7 8 12 14: 525 a.u.
2'F-ANA at 1 2 4 5 6 13 14: 57.4 a.u.
2'F-ANA at 4 5 6 7 8 10 11 12 14: 60.4 a.u.
2'F-ANA at 1 2 5 7 10 13: 44.2 a.u.
2'F-ANA at 2 3 5 6 7 8 10 11 13: 62.9 a.u.
2'F-ANA at 5 9 10 11 12 13 14 15: 47.6 a.u.
2'F-ANA at 3 5 6 7 9 13 14 15: 49.3 a.u.
2'F-ANA at 3 4 5 7 8 13 15: 74.4 a.u.

Sample 4 — technique: EMSA with sequencing; molecule type: double-stranded DNA, one strand shown; matrix: in vitro; tested at: 10 and 20 nM; baseline: negative control set to 0; reading: higher = stronger binding; quantity: normalised bound fraction
Target: Hepatocyte nuclear factor 3-alpha (Foxa1, Mus musculus, UniProt P35582, residues 1-468, full length assumed)
Sequence of UniProt P35582 (whole entry, looked up): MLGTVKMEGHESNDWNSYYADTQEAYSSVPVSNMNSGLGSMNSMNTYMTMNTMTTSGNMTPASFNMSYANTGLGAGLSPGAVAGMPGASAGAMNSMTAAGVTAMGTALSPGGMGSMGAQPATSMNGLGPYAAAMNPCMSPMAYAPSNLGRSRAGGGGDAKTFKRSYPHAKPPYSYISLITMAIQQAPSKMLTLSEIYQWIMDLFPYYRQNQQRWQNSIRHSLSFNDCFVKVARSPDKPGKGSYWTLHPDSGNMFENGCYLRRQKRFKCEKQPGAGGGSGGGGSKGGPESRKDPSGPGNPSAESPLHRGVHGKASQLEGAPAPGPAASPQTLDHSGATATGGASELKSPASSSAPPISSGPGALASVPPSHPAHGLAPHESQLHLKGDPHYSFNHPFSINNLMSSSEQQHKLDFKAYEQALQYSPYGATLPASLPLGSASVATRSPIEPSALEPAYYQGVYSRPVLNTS
Notes: whole designed probe, mean of two concentrations, ends assumed
Constant ends, left off below: GTGAGCGGTGCCCATTGATGGGGAAC … TTTCACTGGGATCGTGGGGAC
GTGTGTGCGCGCGCGTGTGTGTGTGTTTTCTTAAGCCGGGCTATTCAAACCCTGCTGCAATTCTCCGGTAAACAATGTTACATGGGGCATAATGCAAATAAACGGATTGCAACAATGATTCATCGCGCACTTTGCAGCCGGCCCGGTGGAGCAGCCAGTGCCGGATTTCTCCCTTTTTTTGCAGATCTGCAGA: 0.411 ratio
TCTTTCACTCAAGTGGTATATCCCACAGCCCTAAAGAAGCAAGGGAAATAAGAATTAGAACTAGACATCCCAGGAGACAAAGAATTCAACAAAGCAAACACACTTCCTGCTTAACCAATCCCTTCACTATTTACAGAAAATCTCTCTGGCTCAGGCCGGGCAGTGAGTTCATTTATTTCAACAAAATCAAAGA: 0.29 ratio
TCTGACATTTTATAAGGTTATTGCTGTTATACCCAATTTTTCTCTTTCTGCACTTTTGGCAATTAGTGTGATCTGTTGTATCAGTTTTGATGCTTGTTTACATTTTTATTACTTTTGTGTGAATTGTCATTTCAGAGATCTTATATATTATCCTAAAAAATGAATATGTTTTTCATAGACTGTAGTCTATGTG: 0.294 ratio
AGCTTAAGGAAGTTCTAACGCCCCCCTCCCCTCCTTTATTTTTGAGTTGAAAGAGGGTAGAATCAAAAACAATACTGAGAGGGGTCTAAAAATGCAATCTCAGAGAGTTGCTGGTTTAGGAGGGCTGGGAGGCTATGGGAGACCATAGGCATAGAGAAAACATTCCTTCTCTGTGACTCTCGGGCGCGAGCGA: 0.299 ratio
TATATATATATATACTGCCTCAATGTTTTTTAACATGAAATTATTTAGATTATCTAAGACAAGCTGGCTAGGAGTTGTTTTGATTAGAATCAAAGTAAACATAAAACATATTGGCTCTATTTGCTTAGTGGGCGCAATTAAATTTATGATGTATATAACACCATCAGCTTATTTTGAAAGTAAAGTTCTCACT: 0.513 ratio

Repeated from above (sample 2):
GACGGTATGCTTATCCTGACGTGCTAG: 0.105 z-score
TCAGAAATCAACTTTTTTACTGTGCTA: 0.0923 z-score
TCAGGTTTTACTTTCTAACTGTGCTAG: 3.65 z-score
TTAGGTCTCGGTTTAGGTTAGTGCTAG: 1.88 z-score
TTAGAACTGGGCTTTCGATTAGTGCTA: -0.467 z-score
GACGGTTTTGGTTCCGGGACGTGCTAG: 4.45 z-score
TCAGCCAGCTCTTTCGTACTGTGCTAG: -0.401 z-score
GACGGTTTCGGGACTGGGGAAGTGCTA: 4.86 z-score
